{"data": "Measured values from different studies", "note": "A part holds a random share of what one study measured. Changes are numbered by the printed parent chain."}
{"data": "Sample 1", "target": "CCNA2, cyclin fold, Cln2 fusion (human)", "method": "yeast growth competition, sequencing", "sample": "yeast", "setting": "strong parent motif", "baseline": "not given", "reading": "higher = stronger binding", "parent": "RBL2 docking peptide (human); STTRRRLFVENDS"}
{"Substitution": "STERRRLFVENDS [T3E]", "normalised enrichment score": 0.357}
{"Substitution": "STTRRRLPVENDS [F8P]", "normalised enrichment score": 1.06}
{"Substitution": "STTFRRLFVENDS [R4F]", "normalised enrichment score": 2.11}
{"Substitution": "STTRRRLFVENAS [D12A]", "normalised enrichment score": 5.22}
{"Substitution": "STTRRRLAVENDS [F8A]", "normalised enrichment score": 0.983}
{"Substitution": "STTRRRLFVENDC [S13C]", "normalised enrichment score": 5.54}
{"Substitution": "STTSRRLFVENDS [R4S]", "normalised enrichment score": 1.46}
{"Substitution": "STTRRRLFVEQDS [N11Q]", "normalised enrichment score": 5.91}
{"Substitution": "STTRRRLFVENDR [S13R]", "normalised enrichment score": 5.89}
{"Substitution": "VTTRRRLFVENDS [S1V]", "normalised enrichment score": 5.17}
{"Substitution": "STTRRRLFVENDP [S13P]", "normalised enrichment score": 5.89}
{"Substitution": "STCRRRLFVENDS [T3C]", "normalised enrichment score": 6.78}
{"Substitution": "YTTRRRLFVENDS [S1Y]", "normalised enrichment score": 5.39}
{"Substitution": "STTRRRLFEENDS [V9E]", "normalised enrichment score": 5.57}
{"Substitution": "STTRRFLFVENDS [R6F]", "normalised enrichment score": 0.877}
{"Substitution": "STTRVRLFVENDS [R5V]", "normalised enrichment score": 1.88}
{"Substitution": "STTRRALFVENDS [R6A]", "normalised enrichment score": 4.28}
{"Substitution": "STTRRRLFSENDS [V9S]", "normalised enrichment score": 5.65}
{"Substitution": "STTRRRLFVEMDS [N11M]", "normalised enrichment score": 6.07}
{"Substitution": "STTRRRLFRENDS [V9R]", "normalised enrichment score": 5.38}
{"Substitution": "GTTRRRLFVENDS [S1G]", "normalised enrichment score": 5.52}
{"Substitution": "STTRRRIFVENDS [L7I]", "normalised enrichment score": 0.627}
{"Substitution": "STTRCRLFVENDS [R5C]", "normalised enrichment score": 1.68}
{"Substitution": "STDRRRLFVENDS [T3D]", "normalised enrichment score": 0.359}
{"Substitution": "STTRRRLFVHNDS [E10H]", "normalised enrichment score": 4.73}
{"data": "Sample 2", "target": "Histone acetyltransferase KAT6A, both winged helices, GST fusion (KAT6A, Homo sapiens, UniProt Q92794, residues 1-181)", "method": "protein binding microarray", "molecule type": "double-stranded DNA, one strand shown", "sample": "in vitro", "tested at": "not given", "setting": "8-mer, flanks averaged, mean of 2 arrays, mostly near background", "baseline": "not given", "reading": "higher = stronger binding", "Residues (chain)": "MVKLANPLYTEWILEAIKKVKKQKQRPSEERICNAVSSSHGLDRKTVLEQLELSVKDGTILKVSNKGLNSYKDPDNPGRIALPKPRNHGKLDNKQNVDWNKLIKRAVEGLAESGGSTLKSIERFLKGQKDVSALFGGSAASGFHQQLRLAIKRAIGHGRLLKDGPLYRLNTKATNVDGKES"}
{"Sequence": "AAAAGCTA", "E-score": -0.184}
{"Sequence": "GAGTGTTA", "E-score": -0.07}
{"Sequence": "CGGTACTC", "E-score": 0.144}
{"Sequence": "AATTAAAA", "E-score": -0.026}
{"Sequence": "TGAACTCA", "E-score": -0.199}
{"Sequence": "CTCTGTTC", "E-score": -0.163}
{"Sequence": "ACACGGCT", "E-score": 0.241}
{"Sequence": "CAATCTAC", "E-score": -0.0106}
{"Sequence": "CTTCCGTA", "E-score": 0.247}
{"Sequence": "GCGCTGCA", "E-score": 0.29}
{"Sequence": "CGTATGAC", "E-score": 0.121}
{"Sequence": "CGACACTC", "E-score": 0.0618}
{"Sequence": "ATTCATAC", "E-score": 0.107}
{"Sequence": "CCAAGACC", "E-score": -0.147}
{"Sequence": "CTAAGATA", "E-score": -0.151}
{"Sequence": "CCCTACGC", "E-score": 0.111}
{"Sequence": "AAGACAGC", "E-score": -0.025}
{"data": "Sample 3", "target": "Interferon regulatory factor 7, full length, phosphomimetic (IRF7, Homo sapiens, UniProt Q92985, residues 1-503, S471D/S472D/S475D/S476D/S477D/S483D/S484D/S487D)", "method": "protein-binding microarray", "molecule type": "double-stranded DNA, one strand shown", "sample": "in vitro", "tested at": "2200 nM top", "setting": "60-bp whole probe", "with": "salmon DNA 0.4 mg/ml", "baseline": "random background probes", "reading": "higher = stronger binding", "shared flanks, not repeated": "GCCTAGCAC … GTCTTGATTCGCTTGACGCTGCTG", "chain of UniProt Q92985 (whole entry, unmodified, looked up)": "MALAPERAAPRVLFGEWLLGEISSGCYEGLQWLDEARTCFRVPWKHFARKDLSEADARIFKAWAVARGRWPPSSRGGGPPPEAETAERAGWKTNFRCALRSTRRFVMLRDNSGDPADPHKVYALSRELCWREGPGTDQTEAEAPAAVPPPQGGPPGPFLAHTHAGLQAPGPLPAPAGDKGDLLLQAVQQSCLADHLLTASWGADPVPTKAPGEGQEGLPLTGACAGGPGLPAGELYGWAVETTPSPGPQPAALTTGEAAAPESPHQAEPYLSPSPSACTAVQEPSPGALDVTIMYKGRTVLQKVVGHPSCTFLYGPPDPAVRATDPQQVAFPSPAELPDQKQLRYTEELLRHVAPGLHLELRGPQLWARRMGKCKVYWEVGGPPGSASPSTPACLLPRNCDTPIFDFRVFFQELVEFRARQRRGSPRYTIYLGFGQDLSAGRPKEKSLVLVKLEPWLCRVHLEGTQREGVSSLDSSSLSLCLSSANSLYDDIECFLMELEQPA"}
{"Sequence": "TTAGGTTTCCTACCGCTTTAGTGCTAG", "fitted relative affinity [z-score]": 0.999}
{"Sequence": "TTAGGGTTCGACACTGGGTTAGTGCTA", "fitted relative affinity [z-score]": -0.352}
{"Sequence": "GACGGTTTCCTTTTCCTTACGTGCTAG", "fitted relative affinity [z-score]": 6.56}
{"Sequence": "GAAGGTTTCGGTATCGGGACGTGCTAG", "fitted relative affinity [z-score]": 7.26}
{"Sequence": "TCAATTCTCACTGCAGCACTGTGCTAG", "fitted relative affinity [z-score]": 0.868}
{"Sequence": "TTAGGACTGCTTATCCTTAAGTGCTAG", "fitted relative affinity [z-score]": 0.323}
{"Sequence": "AGTCTCTGCAGGGAGAGAGCGTGCTAG", "fitted relative affinity [z-score]": -0.639}
{"Sequence": "GACGATATGAGTCTCGAGACGTGCTAG", "fitted relative affinity [z-score]": 0.39}
{"Sequence": "TCACATCTCTGCTCCTTACTGTGCTAG", "fitted relative affinity [z-score]": 2.43}
{"Sequence": "GTAGGACTGGACTTTCGGTTAGTGCTA", "fitted relative affinity [z-score]": 4.62}
{"Sequence": "GACGCTATCGGGACTGGAGACGTGCTA", "fitted relative affinity [z-score]": -0.179}
{"Sequence": "GACTGACTGGGTATCGGGACGTGCTAG", "fitted relative affinity [z-score]": -0.461}
{"Sequence": "GACGATATCAGTACCGAGACGTGCTAG", "fitted relative affinity [z-score]": 0.188}
{"Sequence": "CACTTTGGATAACCAAAAACGTGCTAG", "fitted relative affinity [z-score]": 0.878}
{"Sequence": "TTAGGTATCGCGTTTCGGTTAGTGCTA", "fitted relative affinity [z-score]": 2.8}
{"Sequence": "ATTTTGAGGTGGAGAGATAAGTGCTAG", "fitted relative affinity [z-score]": -0.247}
{"Sequence": "GACGAACTGAGTTTCAAGACGTGCTAG", "fitted relative affinity [z-score]": 0.0124}
{"Sequence": "TCATAACTCATTCTCTGACTGTGCTAG", "fitted relative affinity [z-score]": 1.12}
{"Sequence": "GAGAATTTCCACTTTGACTTGTGCTAG", "fitted relative affinity [z-score]": 1.78}
{"Sequence": "GACGATTTCGGGTATCGAAACGTGCTA", "fitted relative affinity [z-score]": 2.52}
{"Sequence": "CTCTGTCCCCCTTTTATATTGTGCTAG", "fitted relative affinity [z-score]": 1.38}
{"Sequence": "GACGGTTTCGACTTTCTGGACGTGCTA", "fitted relative affinity [z-score]": 6.86}
{"Sequence": "TTTTCACTTTCTTTAACATAGTGCTAG", "fitted relative affinity [z-score]": 5.51}
{"Sequence": "TCATCTTTGCTTCACCCACTGTGCTAG", "fitted relative affinity [z-score]": 2.02}
{"Sequence": "GACGGTTTCATACTGCTGACGTGCTAG", "fitted relative affinity [z-score]": 2.43}
{"data": "Sample 4", "target": "Prothrombin, mature alpha-thrombin (F2, Homo sapiens, UniProt P00734)", "method": "aptamer microarray, sandwich", "molecule type": "DNA with 2'F-ANA", "sample": "in vitro", "tested at": "200 nM", "setting": "whole 15-mer aptamer, many near background", "with": "Cy3 exosite-II aptamer, 400 nM", "reading": "higher = stronger binding", "sequence": "GGTTGGTGTGGTTGG"}
{"Modification": "2'F-ANA at 3 6 10 11 13", "mean fluorescence intensity [a.u.]": 450}
{"Modification": "2'F-ANA at 2 3 4 7 8 12 14 15", "mean fluorescence intensity [a.u.]": 508}
{"Modification": "2'F-ANA at 1 2 3 4 5 6 9 10 11 12 14 15", "mean fluorescence intensity [a.u.]": 51.8}
{"Modification": "2'F-ANA at 7 8 9 10 11 12 13 15", "mean fluorescence intensity [a.u.]": 180}
{"Modification": "2'F-ANA at 3 4 5 11 13 15", "mean fluorescence intensity [a.u.]": 85.3}
{"Modification": "2'F-ANA at 1 4 5 6 11 15", "mean fluorescence intensity [a.u.]": 50.1}
{"Modification": "2'F-ANA at 3 4 5 6 7 8 9 11 14 15", "mean fluorescence intensity [a.u.]": 62.7}
{"Modification": "2'F-ANA at 1 2 3 5 6 7 8 9 11 13 14 15", "mean fluorescence intensity [a.u.]": 49.8}
{"Modification": "2'F-ANA at 1 2 3 4 6 7 8", "mean fluorescence intensity [a.u.]": 198}
{"Modification": "2'F-ANA at 3 7 8 9 12 13 14", "mean fluorescence intensity [a.u.]": 738}
{"Modification": "2'F-ANA at 3 4 5 6 10 11 12 14", "mean fluorescence intensity [a.u.]": 48.7}
{"Modification": "2'F-ANA at 1 3 4 5 6 8 13 14", "mean fluorescence intensity [a.u.]": 46.7}
{"Modification": "2'F-ANA at 3 5 6 8 11 12", "mean fluorescence intensity [a.u.]": 204}
{"Modification": "2'F-ANA at 1 3 6 8 11 12 13 14", "mean fluorescence intensity [a.u.]": 109}
{"Modification": "2'F-ANA at 3 7 8 9 10 11 14", "mean fluorescence intensity [a.u.]": 501}
{"Modification": "2'F-ANA at 1 4 5 6 8 10 13 15", "mean fluorescence intensity [a.u.]": 56.8}
{"Modification": "2'F-ANA at 3 6 8 15", "mean fluorescence intensity [a.u.]": 1050}
{"Modification": "2'F-ANA at 2 4 5 6 11 12 14", "mean fluorescence intensity [a.u.]": 45.1}
{"Modification": "2'F-ANA at 2 4 5 7 8 10 12 15", "mean fluorescence intensity [a.u.]": 52.5}
{"Modification": "2'F-ANA at 1 2 4 8 9 11 12 14 15", "mean fluorescence intensity [a.u.]": 67.4}
{"Modification": "2'F-ANA at 1 2 3 6 7 13 14", "mean fluorescence intensity [a.u.]": 136}
{"Modification": "2'F-ANA at 1 2 7 8 9 10 12 14 15", "mean fluorescence intensity [a.u.]": 48.9}
{"Modification": "2'F-ANA at 2 6 7 13 14 15", "mean fluorescence intensity [a.u.]": 120}
{"Modification": "2'F-ANA at 2 3 4 5 13 14 15", "mean fluorescence intensity [a.u.]": 51.7}
{"Modification": "2'F-ANA at 1 2 4 5 6 7 9 10 12 14", "mean fluorescence intensity [a.u.]": 46.7}
{"note": "Excerpt of the above (sample 3):"}
{"Sequence": "TTAGGACTGCTTATCCTTAAGTGCTAG", "fitted relative affinity [z-score]": 0.323}
{"Sequence": "AGTCTCTGCAGGGAGAGAGCGTGCTAG", "fitted relative affinity [z-score]": -0.639}
{"Sequence": "GACGATATGAGTCTCGAGACGTGCTAG", "fitted relative affinity [z-score]": 0.39}
{"Sequence": "TCACATCTCTGCTCCTTACTGTGCTAG", "fitted relative affinity [z-score]": 2.43}
{"Sequence": "GTAGGACTGGACTTTCGGTTAGTGCTA", "fitted relative affinity [z-score]": 4.62}
{"Sequence": "GACGCTATCGGGACTGGAGACGTGCTA", "fitted relative affinity [z-score]": -0.179}
{"Sequence": "GACTGACTGGGTATCGGGACGTGCTAG", "fitted relative affinity [z-score]": -0.461}
{"Sequence": "GACGATATCAGTACCGAGACGTGCTAG", "fitted relative affinity [z-score]": 0.188}
